Results from different studies.
Numbered parts are unrelated; each lists some results of a single study. Positions count from the first letter of the parent shown.

Sample 1 — target: BATF2, bZIP domain (human); technique: DHFR protein complementation; medium: yeast; baseline: wild-type JUN-FOS pair; reading: higher = stronger binding; quantity: binding fitness
Notes: single substitutions, most at no-binding floor
Starting sequence: JUN, bZIP domain (human); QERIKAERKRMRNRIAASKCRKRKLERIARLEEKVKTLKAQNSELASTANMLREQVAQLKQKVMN; partner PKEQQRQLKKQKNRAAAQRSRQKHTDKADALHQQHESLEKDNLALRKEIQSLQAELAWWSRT
A29R: -0.396 natural log
E44I: -0.42 natural log
Q41F: -1.2 natural log
L52S: -1.23 natural log
K36I: -0.516 natural log
Q41E: -0.182 natural log
K34G: -0.301 natural log
K39H: -0.468 natural log
E44R: -0.44 natural log
S43R: -0.124 natural log
A40C: -0.574 natural log
I28H: -0.477 natural log
L38R: -1.17 natural log
L45P: -1.31 natural log
A49P: -1.32 natural log
V35F: -0.975 natural log
A29Y: -0.58 natural log
R53V: -1.38 natural log
S43E: -0.0669 natural log
A49R: -0.118 natural log
E44A: -0.366 natural log
I28V: -0.269 natural log
R53Q: -0.856 natural log
A29V: -0.649 natural log
E32R: -0.447 natural log

Sample 2 — technique: DHFR PCA, deep sequencing; medium: yeast; with: (+)-ABA 0 µM; baseline: wild-type fitted maximum; reading: higher = stronger binding; quantity: relative binding score
Target: ABI1, truncated, D143A, DHFR fusion (Arabidopsis thaliana)
Notes: methotrexate growth selection, single substitutions
Starting sequence: PYL1, truncated, DHFR fusion (Arabidopsis thaliana); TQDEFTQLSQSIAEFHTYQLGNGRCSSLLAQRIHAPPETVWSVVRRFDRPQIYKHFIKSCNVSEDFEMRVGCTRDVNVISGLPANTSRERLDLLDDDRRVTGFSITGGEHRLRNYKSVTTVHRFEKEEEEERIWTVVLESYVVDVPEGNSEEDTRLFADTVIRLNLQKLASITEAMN; partner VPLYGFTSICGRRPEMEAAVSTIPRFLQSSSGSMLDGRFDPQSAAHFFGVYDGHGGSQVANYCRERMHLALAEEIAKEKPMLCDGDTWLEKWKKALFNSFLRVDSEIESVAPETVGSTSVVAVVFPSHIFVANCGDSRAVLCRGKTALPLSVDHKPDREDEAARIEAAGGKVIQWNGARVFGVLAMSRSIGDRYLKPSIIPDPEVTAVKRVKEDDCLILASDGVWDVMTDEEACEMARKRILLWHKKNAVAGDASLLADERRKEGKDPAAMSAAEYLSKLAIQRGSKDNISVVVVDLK
R69F: 1.16%
G102S: 0.236%
T135A: -6.7%
K58T: 8.32%
T120V: -3.59%
T39S: 5.16%
I105H: 7.59%
D75Q: 27%
A30N: 0.544%
I52R: 8.96%
S26M: -1.38%
Q19L: 0.197%
E127F: 14.3%
S27H: 0.113%
N77M: 34%
E64L: 1.94%
T160F: 51.6%
F15N: -6.07%
R99F: 58.5%
N165W: 5.23%
V100I: 13.3%
L166C: -0.921%
N85P: 7.13%
V78R: 37.3%
D75W: 20%

Sample 3 — technique: universal PBM; molecule type: double-stranded DNA, one strand shown; medium: in vitro; tested at: not given; reading: higher = stronger binding; quantity: E-score
Target: Sal-like protein 4, full length isoform B (SALL4, Homo sapiens, UniProt Q9UJQ4-2, residues 1-616)
Notes: 8-mer, flanks averaged, mean of replicates
ACCTGATA: 0.166
GAGTTCCA: -0.142
CCATGCGA: -0.0762
CCGCAGAA: -0.0851
CAAAAAAA: 0.291
CGCGGAGA: -0.172
CAAATCCC: -0.166
CGTGAAGC: -0.194
CAAGTTTC: 0.125
AGGGCATC: -0.271
CTCTGGGA: -0.27
ACACAGTG: -0.0394
GGTACGGA: -0.216
AATGTCCT: 0.154
ATTGGAGA: 0.233
ATTTCCTG: 0.172
GGTAGTAC: -0.0819
CCTCAGAA: -0.0852
AGGGTATA: 0.274

Sample 4 — target: CCNB1, cyclin fold, Cln2 fusion (human); technique: yeast growth competition, sequencing; medium: yeast; notes: strong parent motif; baseline: not given; reading: higher = stronger binding; quantity: normalised enrichment score
Starting sequence: PKN2 docking peptide (human); VSAVRKLDFSDTM
VSAVRKLDESDTM [F9E]: -0.0585
VSAVRKLCFSDTM [D8C]: 2.21
VSAVRKLDFSRTM [D11R]: 1.7
VSAVRKLDFMDTM [S10M]: 2.77
VSACRKLDFSDTM [V4C]: 2.65
VSAVRKLLFSDTM [D8L]: 1.07
VSAVRELDFSDTM [K6E]: 1.86
VSAVRDLDFSDTM [K6D]: 0.168
VSAQRKLDFSDTM [V4Q]: 1.38
VSAVRKLDFSDWM [T12W]: 3.72
VSCVRKLDFSDTM [A3C]: 4.72
VSAVRKLDFSHTM [D11H]: 2.05
VGAVRKLDFSDTM [S2G]: 4.02
VSAVRKLDFSDSM [T12S]: 4.01
VSAKRKLDFSDTM [V4K]: 1.29
VSAVRKLDDSDTM [F9D]: -0.102
VSAVRKLDFDDTM [S10D]: 5.2
VSAVWKLDFSDTM [R5W]: 0.326
VSAVRKLDFSDRM [T12R]: 3.15
VSAVRKLYFSDTM [D8Y]: 2.83

Sample 5 — technique: RNA Bind-n-Seq; molecule type: RNA; medium: in vitro; tested at: 365 nM; baseline: no-protein control; reading: higher = stronger binding; quantity: RBNS enrichment (R)
Target: RNA binding protein fox-1 homolog 2, RRM domain, GST-SBP tag (RBFOX2, Homo sapiens, UniProt O43251-10, residues 100-194)
Notes: natural RNA segment, single round, ends assumed
Target sequence (chain): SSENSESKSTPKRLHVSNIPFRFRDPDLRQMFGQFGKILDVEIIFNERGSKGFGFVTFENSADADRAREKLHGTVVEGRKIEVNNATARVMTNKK
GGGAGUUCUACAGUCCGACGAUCGAAGGUCCUCAGAACAUCCUCCAGCAGUGAGUGGCCCAGCGAGCCCAGCAAGGGUGACUCACUAGACUCAGGAUGUAGCCUGAGCAGUGUCACCCAGAGUAGCGGCUGCCUGGAAUUCUCGGGUGCCAA: 0.248
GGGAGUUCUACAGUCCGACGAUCCUCCUGCUUCUCCUUCCACUUGAGCUGGUUUGAGACUGGUUUCUGGAGGCUGUGGGGUGUAACUUUGGGUUUGUAUUUUUUCUGCUCAUCUUUCUGCCUGUCACCGGGUGUGGAAUUCUCGGGUGCCAA: 0.343
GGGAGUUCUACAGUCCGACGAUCCCAACUUCUCAGGCUGUCUUGCCCAAGAUGCAGGACCCCUACCUAGCCCACCUCCCAAGGCACCUGUGCCUCCACUCAGGAUGUCUUGCUCUGACUGGCUCCCCUUCCAGUGGAAUUCUCGGGUGCCAA: 0.401
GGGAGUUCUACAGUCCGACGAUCACUAGAUAUACGUUUUUAAAUUUAACAUCUGGCUGGACAGUGUUCUAUUAACUCAUUGAAUGUGUUUCCUUUGUCUUGUGUUAAUAAAUAUUGAUGCCUGAUUCUGUUUAUGGAAUUCUCGGGUGCCAA: 1.12
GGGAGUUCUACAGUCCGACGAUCGUGUGAAGGGACCUGUGGCCACCAGAGGAUGCUCUGGGCCUACUGAGGACAGGCCACUUGUGCUCAGAGAACCUCACCUCACCGCAGAAGUGGUGCCUCUUCCAGAAGACUGGAAUUCUCGGGUGCCAA: 0.479
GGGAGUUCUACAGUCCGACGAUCUUGGCUGUGAGCCGUUGGUGAAAUCCUUUCACAUCGACACCAAAAGCUCUCCCCAGCUAGUGAAAACCUGAACAUCGUUAGAGUCACCGACUUUACAUGCUCAGAAUGCUUGGAAUUCUCGGGUGCCAA: 0.243
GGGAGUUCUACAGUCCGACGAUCUAGAGGAAAAGUUACUGGUGGUACCUUGCUGCCUGCUCUGCUGGUAGAAUUCUGUGCUCCCCGUGACACUUAGUACAUUAAGAAUGACUACACUGUUCCUCGUAUGUGAAUGGAAUUCUCGGGUGCCAA: 0.272
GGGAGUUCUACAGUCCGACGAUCGCAGACAGAUGGUGGAUGGUCUGGACAAGAAGCGAGUAAGCCACUGCGGUUGGUCAUACUGAAGGGAAUUGAUGGCAAGAGGAUCCCCUGAGCAAGUCAGAAGUUACUCUUGGAAUUCUCGGGUGCCAA: 1.17

For quick reference, copied from above (sample 1):
A40C: -0.574 natural log
E44A: -0.366 natural log
L52S: -1.23 natural log
A49P: -1.32 natural log
A29R: -0.396 natural log
S43E: -0.0669 natural log
I28H: -0.477 natural log
K34G: -0.301 natural log
R53Q: -0.856 natural log
K36I: -0.516 natural log
A29Y: -0.58 natural log
K39H: -0.468 natural log
